Experimental data gathered from unrelated publications.
Lines come from different studies, so protocols differ. ± marks the error that the study gave.
rep papain-like protease: Replicase polyprotein 1ab, papain-like protease (rep, Severe acute respiratory syndrome coronavirus 2, UniProt P0DTD1)
rep nsp12 RdRp: Replicase polyprotein 1ab, nsp12 RdRp (rep, Severe acute respiratory syndrome coronavirus 2, UniProt P0DTD1)
Chain of UniProt P41143 (whole entry, looked up): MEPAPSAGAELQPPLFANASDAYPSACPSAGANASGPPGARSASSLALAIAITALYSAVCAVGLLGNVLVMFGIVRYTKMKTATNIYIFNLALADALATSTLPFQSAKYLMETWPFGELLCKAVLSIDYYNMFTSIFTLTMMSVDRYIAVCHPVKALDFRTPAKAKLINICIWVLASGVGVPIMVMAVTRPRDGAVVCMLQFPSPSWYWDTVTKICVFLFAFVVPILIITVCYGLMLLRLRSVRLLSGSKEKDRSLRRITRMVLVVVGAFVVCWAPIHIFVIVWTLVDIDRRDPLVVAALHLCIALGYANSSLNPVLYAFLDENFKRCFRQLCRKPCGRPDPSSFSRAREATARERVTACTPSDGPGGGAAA
Chain of UniProt P35372 (whole entry, looked up): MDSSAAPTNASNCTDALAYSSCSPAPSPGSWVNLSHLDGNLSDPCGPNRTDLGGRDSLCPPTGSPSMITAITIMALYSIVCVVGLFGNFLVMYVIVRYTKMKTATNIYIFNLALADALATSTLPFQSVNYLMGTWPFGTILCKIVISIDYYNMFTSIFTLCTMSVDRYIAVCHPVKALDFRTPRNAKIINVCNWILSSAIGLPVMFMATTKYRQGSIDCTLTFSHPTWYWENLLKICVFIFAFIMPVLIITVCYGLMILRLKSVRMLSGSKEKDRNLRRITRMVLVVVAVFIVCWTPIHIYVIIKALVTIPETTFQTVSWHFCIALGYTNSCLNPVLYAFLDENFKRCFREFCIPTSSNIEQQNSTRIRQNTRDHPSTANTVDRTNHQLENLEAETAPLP

Structure (SMILES) = Cc1ccc(OCCN(C)C)cc1C(=O)N[C@H](C)c1cc(-c2cnn(C)c2)cc(-c2cnn(C)c2)c1; tested on = rep papain-like protease; test = protease activity, inhibitor, FlipGFP; test system = SARS-CoV-2; quantity = EC50; value = 1800 ± 200 nM
Structure (SMILES) = Cc1ccc(N)cc1CN(C)[C@H](C)c1cccc2ccccc12; tested on = rep papain-like protease; test = enzyme activity in cells, inhibitor; quantity = EC50; value = < 10000 nM
Structure (SMILES) = Cc1ccc(OCCN(C)C)cc1C(=O)N[C@H](C)c1cc(-c2cnn(CC(=O)N(C)C)c2)nc2ccccc12; tested on = rep papain-like protease; test = viral replication; quantity = EC50; value = 32000 nM
Structure (SMILES) = Cc1cc(O)ccc1CN(C)[C@H](C)c1cccc2ccccc12; tested on = rep papain-like protease; test = enzyme activity in cells, inhibitor; quantity = EC50; value = 55100 nM
Structure (SMILES) = Cc1cccc(NC(=O)CSc2c[nH]c3ccccc23)c1; tested on = Replicase polyprotein 1ab, nsp12 with nsp14/nsp10 (rep, Severe acute respiratory syndrome coronavirus 2, UniProt P0DTD1); test = RdRp reporter activity, inhibitor, Gaussia luciferase reporter; test system = HEK293T; setting = 24 h, with: nsp7, nsp8, nsp10, nsp14; quantity = EC50; value = 2560 nM
Structure (SMILES) = Cc1ccc(O)cc1CN(C)[C@H](C)c1cccc2ccccc12; tested on = rep papain-like protease; test = enzyme activity in cells, inhibitor; quantity = EC50; value = < 10000 nM
Structure (SMILES) = CC(C)C[C@H](NC(=O)[C@H](CO)NC(=O)[C@H](CCCCN)NC(=O)[C@H](CC(C)C)NC(=O)CNC(=O)[C@H](CCCCN)NC(=O)[C@H](CCC(=O)O)NC(=O)CNC(=O)[C@H](CC(C)C)NC(=O)[C@H](CC(N)=O)NC(=O)[C@@H]1CCCN1C(=O)[C@H](CC(C)C)NC(=O)[C@H](Cc1ccccc1)NC(=O)CNC(=O)[C@H](NC(=O)[C@@H](N)Cc1ccc(O)cc1)[C@H](C)O)C(N)=O; tested on = OPRM1 (Homo sapiens, UniProt P35372); test = radioligand displacement; test system = CHO membranes; setting = 60 min, pH 7.5, 25 °C, with: 0.25 nM [3H]DAMGO; quantity = Ki; value = 12 ± 1.8 nM
Structure (SMILES) = CCn1ccc(-c2cc(-c3cnn(CCOC)c3)cc([C@@H](C)NC(=O)c3cc(OCCN(C)C)ccc3C)c2)n1; tested on = rep papain-like protease; test = protease activity, inhibitor, FlipGFP; test system = SARS-CoV-2; quantity = EC50; value = 2000 ± 300 nM
Structure (SMILES) = CC(C)C[C@H](NC(=O)[C@H](CO[C@@H]1O[C@H](CO)[C@@H](O)[C@H](O)[C@H]1O)NC(=O)[C@H](CCCCN)NC(=O)[C@H](CC(C)C)NC(=O)C(C)(C)NC(=O)[C@H](CCCCN)NC(=O)[C@H](CCC(=O)O)NC(=O)C(C)(C)NC(=O)[C@H](CC(C)C)NC(=O)[C@H](CC(N)=O)NC(=O)[C@@H]1CCCN1C(=O)[C@H](CC(C)C)NC(=O)[C@H](Cc1ccccc1)NC(=O)CNC(=O)[C@H](NC(=O)[C@@H](N)Cc1ccc(O)cc1)[C@H](C)O)C(N)=O; tested on = OPRD1 (Homo sapiens, UniProt P41143); test = ligand displacement, radioligand; setting = pH 7.5, cell membranes; quantity = Ki; value = 11 nM
Structure (SMILES) = Cc1ccc(OCCN(C)C)cc1C(=O)N[C@H](C)c1cc(-c2cnn(C)c2)cc(-c2cnn(C(F)F)c2)c1; tested on = rep papain-like protease; test = protease activity, inhibitor, FlipGFP; test system = SARS-CoV-2; quantity = EC50; value = 2100 ± 200 nM
Structure (SMILES) = O=C(CSc1c[nH]c2ccccc12)NCc1ccc(Cl)c(Cl)c1; tested on = rep nsp12 RdRp; test = SARS-CoV-2 RdRp (nsp12/7/8) activity, inhibitor; test system = HEK293T; setting = 24 h; quantity = EC50; value = 2750 nM
Structure (SMILES) = COc1ccc(O)c(C=NN2C(=O)c3ccccc3NC2c2cc(OC)ccc2O)c1 (stereo not drawn); tested on = Replicase polyprotein 1ab, main protease (rep, Severe acute respiratory syndrome coronavirus 2, UniProt P0DTD1); test = viral replication, GFP reporter; test system = HEK293T, SARS-CoV-2; setting = 48 h; quantity = EC50; value = ~6500 nM
Structure (SMILES) = CC(C)C[C@H](NC(=O)OCc1ccccc1)C(=O)N[C@@H](C[C@@H]1CCNC1=O)C(O)S(=O)(=O)O (stereo partly drawn); tested on = Replicase polyprotein 1ab, main protease (Bat coronavirus HKU9, UniProt P0C6W5); test = viral replication; quantity = EC50; value = 11100 nM
Structure (SMILES) = CCOc1cccc(NC(=O)CSc2cn(C(=O)OC(C)(C)C)c3ccccc23)c1; tested on = rep nsp12 RdRp; test = SARS-CoV-2 RdRp (nsp12/7/8) activity, inhibitor; test system = HEK293T; setting = 24 h; quantity = EC50; value = 1410 nM
Structure (SMILES) = CCCCCCCCCCCCCCCC(=O)N[C@@H](CCC(=O)NCCOCCOCCC(=O)NCCOCCOCCC(=O)NCCCC[C@H](NC(=O)[C@H](CC(=O)O)NC(=O)[C@H](CC(C)C)NC(=O)[C@H](Cc1ccc(O)cc1)NC(=O)[C@H](CCCCN)NC(=O)[C@H](CO)NC(=O)[C@H](Cc1ccc(O)cc1)NC(=O)[C@H](CC(=O)O)NC(=O)[C@H](CO)NC(=O)[C@@H](NC(=O)[C@H](Cc1ccccc1)NC(=O)[C@@H](NC(=O)CNC(=O)[C@H](CCC(N)=O)NC(=O)[C@@H](CO)NC(=O)[C@@H](N)Cc1c[nH]cn1)[C@@H](C)O)[C@@H](C)O)C(=O)N[C@@H](CCCNC(=N)N)C(=O)N[C@@H](CCCNC(=N)N)C(=O)N[C@@H](C)C(=O)N[C@@H](CCC(N)=O)C(=O)N[C@@H](CC(=O)O)C(=O)N[C@@H](Cc1ccccc1)C(=O)N[C@H](C(=O)N[C@@H](CCC(N)=O)C(=O)N[C@@H](Cc1c[nH]c2ccccc12)C(=O)N[C@@H](CC(C)C)C(=O)N[C@@H](CC(C)C)C(=O)N[C@@H](CC(N)=O)C(=O)N[C@H](C(=O)NCC(=O)NCC(=O)N1CCC[C@H]1C(=O)N[C@@H](CO)C(=O)N[C@@H](CO)C(=O)NCC(=O)N[C@@H](C)C(=O)N1CCC[C@H]1C(=O)N1CCC[C@H]1C(=O)N1CCC[C@H]1C(=O)N[C@@H](CO)C(N)=O)[C@@H](C)O)C(C)C)C(=O)O; test system = male Sprague-Dawley rats; setting = subcutaneous, 20 µg/kg once daily, 14 days; quantity = serum cholesterol; value = 1.25 ± 0.21 mmol/L
